# Experimental data pooled from the literature.
# Protocols differ between the studies behind these lines. “And” joins repeats or separate records; there may be more than shown. Numbers after ± are the reported error.
# ATRX F284Y/K251R: Transcriptional regulator ATRX (ATRX, Homo sapiens, UniProt P46100, F284Y/K251R)
# Chain of UniProt P46100 (whole entry, unmodified, looked up): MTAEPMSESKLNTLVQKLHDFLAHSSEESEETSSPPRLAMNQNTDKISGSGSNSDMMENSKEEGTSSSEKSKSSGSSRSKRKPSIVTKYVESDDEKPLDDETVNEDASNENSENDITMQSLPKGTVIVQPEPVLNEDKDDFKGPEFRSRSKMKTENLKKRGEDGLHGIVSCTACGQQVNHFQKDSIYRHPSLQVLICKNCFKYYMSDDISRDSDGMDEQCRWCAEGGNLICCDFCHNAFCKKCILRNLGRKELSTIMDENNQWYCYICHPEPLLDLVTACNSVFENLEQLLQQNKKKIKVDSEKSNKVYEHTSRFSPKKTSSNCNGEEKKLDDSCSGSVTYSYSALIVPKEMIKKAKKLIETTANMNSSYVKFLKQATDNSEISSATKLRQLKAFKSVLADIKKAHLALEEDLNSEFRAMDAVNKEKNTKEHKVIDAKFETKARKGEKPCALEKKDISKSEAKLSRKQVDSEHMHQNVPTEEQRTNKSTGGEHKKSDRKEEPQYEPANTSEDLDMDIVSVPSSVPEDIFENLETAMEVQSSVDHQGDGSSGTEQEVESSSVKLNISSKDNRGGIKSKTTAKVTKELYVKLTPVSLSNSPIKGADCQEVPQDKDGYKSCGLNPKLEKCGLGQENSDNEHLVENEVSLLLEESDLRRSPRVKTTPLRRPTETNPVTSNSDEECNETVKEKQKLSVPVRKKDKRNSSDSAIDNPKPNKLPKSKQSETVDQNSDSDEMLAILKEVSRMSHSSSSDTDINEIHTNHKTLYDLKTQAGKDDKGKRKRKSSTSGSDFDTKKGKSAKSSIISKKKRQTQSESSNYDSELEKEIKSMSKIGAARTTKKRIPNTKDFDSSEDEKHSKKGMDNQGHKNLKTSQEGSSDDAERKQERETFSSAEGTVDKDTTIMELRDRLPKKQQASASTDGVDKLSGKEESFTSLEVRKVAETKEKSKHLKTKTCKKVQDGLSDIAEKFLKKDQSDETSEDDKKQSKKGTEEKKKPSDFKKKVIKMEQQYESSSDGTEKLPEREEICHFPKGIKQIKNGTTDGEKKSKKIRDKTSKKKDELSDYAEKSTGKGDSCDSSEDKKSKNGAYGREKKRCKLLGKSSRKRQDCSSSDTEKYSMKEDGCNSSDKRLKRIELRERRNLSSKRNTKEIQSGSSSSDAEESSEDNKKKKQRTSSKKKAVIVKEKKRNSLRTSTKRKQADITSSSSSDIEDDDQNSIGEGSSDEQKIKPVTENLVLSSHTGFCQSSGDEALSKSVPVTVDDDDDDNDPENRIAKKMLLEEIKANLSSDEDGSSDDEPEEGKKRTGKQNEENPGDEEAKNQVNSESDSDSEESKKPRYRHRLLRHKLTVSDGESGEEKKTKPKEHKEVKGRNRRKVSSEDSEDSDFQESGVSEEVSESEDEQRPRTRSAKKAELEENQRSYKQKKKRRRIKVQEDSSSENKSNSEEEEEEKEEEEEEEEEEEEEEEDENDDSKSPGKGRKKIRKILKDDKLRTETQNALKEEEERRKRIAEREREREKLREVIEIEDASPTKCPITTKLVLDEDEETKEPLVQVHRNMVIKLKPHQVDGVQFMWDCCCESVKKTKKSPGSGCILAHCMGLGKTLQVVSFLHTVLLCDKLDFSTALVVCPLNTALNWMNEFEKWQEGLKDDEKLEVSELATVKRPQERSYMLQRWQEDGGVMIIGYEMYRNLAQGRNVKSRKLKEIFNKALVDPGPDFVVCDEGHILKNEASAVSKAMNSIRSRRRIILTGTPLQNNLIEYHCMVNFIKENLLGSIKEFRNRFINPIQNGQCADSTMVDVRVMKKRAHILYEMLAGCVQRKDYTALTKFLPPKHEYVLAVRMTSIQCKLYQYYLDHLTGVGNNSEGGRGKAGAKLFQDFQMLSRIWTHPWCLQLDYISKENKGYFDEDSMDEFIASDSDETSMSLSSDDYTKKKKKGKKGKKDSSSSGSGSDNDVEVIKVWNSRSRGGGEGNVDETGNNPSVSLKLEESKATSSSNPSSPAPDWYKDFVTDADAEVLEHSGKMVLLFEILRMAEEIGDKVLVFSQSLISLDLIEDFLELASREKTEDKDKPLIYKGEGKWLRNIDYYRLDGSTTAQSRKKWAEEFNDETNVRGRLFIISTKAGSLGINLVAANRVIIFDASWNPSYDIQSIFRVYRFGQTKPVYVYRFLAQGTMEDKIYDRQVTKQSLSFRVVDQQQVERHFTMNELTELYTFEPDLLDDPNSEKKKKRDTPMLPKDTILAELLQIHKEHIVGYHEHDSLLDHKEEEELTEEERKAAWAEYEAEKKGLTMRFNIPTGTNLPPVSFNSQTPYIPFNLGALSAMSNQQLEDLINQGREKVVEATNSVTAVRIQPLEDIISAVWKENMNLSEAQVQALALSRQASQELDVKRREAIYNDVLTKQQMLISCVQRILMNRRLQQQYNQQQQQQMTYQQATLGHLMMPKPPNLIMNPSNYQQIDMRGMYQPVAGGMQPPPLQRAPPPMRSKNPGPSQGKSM
# YWHAG/RELA phospho-Ser45 p65 peptide: YWHAG/RELA, phospho-Ser45 p65 peptide (Homo sapiens, UniProt P61981+Q04206)
# Chain of UniProt P61981 (whole entry, looked up): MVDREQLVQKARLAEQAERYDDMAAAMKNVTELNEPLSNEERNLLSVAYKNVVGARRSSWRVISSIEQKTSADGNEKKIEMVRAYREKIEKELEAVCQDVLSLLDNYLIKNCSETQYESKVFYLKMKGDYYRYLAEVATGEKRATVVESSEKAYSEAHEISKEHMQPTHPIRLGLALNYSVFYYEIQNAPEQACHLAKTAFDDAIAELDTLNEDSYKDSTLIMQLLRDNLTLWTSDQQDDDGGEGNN
# BRCA1 tandem BRCT domains: Breast cancer type 1 susceptibility protein, tandem BRCT domains (BRCA1, Homo sapiens, UniProt P38398)
# Nuclear receptor subfamily 2 group C member 2 ligand-binding domain: Nuclear receptor subfamily 2 group C member 2, ligand-binding domain (Homo sapiens, UniProt P49116)
# Chain of UniProt P49116 (whole entry, looked up): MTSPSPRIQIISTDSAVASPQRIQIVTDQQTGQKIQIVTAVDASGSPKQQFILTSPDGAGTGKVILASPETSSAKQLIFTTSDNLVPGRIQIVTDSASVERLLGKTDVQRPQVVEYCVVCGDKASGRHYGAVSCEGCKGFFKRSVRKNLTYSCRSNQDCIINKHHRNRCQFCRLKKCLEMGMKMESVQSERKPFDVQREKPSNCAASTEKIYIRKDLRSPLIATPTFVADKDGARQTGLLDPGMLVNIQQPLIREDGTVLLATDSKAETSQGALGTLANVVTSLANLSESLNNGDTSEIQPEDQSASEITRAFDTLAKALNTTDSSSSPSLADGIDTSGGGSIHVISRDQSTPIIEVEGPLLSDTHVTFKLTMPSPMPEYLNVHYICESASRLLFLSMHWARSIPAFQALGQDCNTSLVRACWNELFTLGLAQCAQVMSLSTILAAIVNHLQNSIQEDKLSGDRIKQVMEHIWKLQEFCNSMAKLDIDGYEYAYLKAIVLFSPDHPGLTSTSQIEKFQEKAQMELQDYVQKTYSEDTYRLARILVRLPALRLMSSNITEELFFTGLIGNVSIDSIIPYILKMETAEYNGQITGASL
# Chain of UniProt P13569 (whole entry, unmodified, looked up): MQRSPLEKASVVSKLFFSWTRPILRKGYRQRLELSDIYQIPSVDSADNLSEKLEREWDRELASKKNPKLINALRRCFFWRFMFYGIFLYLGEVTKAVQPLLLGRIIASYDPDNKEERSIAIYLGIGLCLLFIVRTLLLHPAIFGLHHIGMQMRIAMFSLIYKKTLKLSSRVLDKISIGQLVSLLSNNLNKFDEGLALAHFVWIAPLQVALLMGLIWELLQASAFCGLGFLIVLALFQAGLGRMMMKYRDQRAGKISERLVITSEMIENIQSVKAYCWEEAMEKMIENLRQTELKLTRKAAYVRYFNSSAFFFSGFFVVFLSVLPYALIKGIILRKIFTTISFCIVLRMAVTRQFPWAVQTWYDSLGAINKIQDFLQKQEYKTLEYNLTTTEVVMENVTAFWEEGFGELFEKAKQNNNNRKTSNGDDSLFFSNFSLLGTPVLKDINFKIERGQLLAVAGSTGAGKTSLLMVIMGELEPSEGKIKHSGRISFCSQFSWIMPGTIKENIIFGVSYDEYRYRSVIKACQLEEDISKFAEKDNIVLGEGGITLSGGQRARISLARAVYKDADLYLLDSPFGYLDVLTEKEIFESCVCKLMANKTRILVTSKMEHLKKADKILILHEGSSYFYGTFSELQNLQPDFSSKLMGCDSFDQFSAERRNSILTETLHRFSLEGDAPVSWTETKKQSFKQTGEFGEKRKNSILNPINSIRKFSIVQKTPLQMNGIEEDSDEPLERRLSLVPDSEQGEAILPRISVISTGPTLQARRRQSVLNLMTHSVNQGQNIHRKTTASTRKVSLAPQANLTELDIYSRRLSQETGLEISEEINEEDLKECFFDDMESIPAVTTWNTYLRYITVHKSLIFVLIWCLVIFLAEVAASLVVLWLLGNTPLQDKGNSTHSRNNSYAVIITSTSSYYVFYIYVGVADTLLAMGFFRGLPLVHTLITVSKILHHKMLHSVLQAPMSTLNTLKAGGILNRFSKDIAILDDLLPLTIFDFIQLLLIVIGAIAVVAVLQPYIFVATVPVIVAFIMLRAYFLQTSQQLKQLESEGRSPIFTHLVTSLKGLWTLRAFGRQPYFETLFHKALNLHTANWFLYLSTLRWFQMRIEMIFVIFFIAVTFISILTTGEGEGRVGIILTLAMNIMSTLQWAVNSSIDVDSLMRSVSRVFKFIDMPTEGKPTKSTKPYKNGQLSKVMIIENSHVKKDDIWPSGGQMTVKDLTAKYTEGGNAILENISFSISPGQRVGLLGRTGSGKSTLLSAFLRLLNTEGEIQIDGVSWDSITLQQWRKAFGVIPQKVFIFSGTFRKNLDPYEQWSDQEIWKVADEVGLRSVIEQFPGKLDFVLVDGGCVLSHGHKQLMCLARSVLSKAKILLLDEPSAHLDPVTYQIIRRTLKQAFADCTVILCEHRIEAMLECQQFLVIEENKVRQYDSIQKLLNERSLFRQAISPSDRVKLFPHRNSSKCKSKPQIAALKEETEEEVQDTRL
# Chain of UniProt P02911 (whole entry, looked up): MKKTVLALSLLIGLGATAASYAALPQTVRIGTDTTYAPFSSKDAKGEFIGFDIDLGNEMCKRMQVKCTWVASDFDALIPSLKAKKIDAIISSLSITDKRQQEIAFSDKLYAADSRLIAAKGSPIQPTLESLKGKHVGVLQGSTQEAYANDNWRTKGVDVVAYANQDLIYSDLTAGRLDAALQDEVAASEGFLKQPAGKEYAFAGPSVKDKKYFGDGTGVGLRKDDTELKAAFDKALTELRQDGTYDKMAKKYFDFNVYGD
Structure (SMILES),tested on,test,test system,setting,scale,quantity,value
O=[N+]([O-])c1cc(C(F)(F)F)ccc1NCc1ccco1,"Endothelial PAS domain-containing protein 1, PAS-B domain (EPAS1, Homo sapiens, UniProt Q99814, N288Q)","ITC, reverse mode",,25 °C,,Kd,1.57 ± 0.07 µM
C[C@H](N)C(=O)N[C@@H](CCCNC(=N)N)C(=O)N[C@H](C(=O)N[C@@H](C)C(=O)N[C@@H](CCC(N)=O)C(=O)N[C@H](C(=O)N[C@@H](C)C(=O)N[C@@H](CCCNC(=N)N)C(=O)N[C@@H](CCCCN)C(=O)N[C@@H](CO)C(=O)O)[C@@H](C)O)[C@@H](C)O,ATRX F284Y/K251R,binding,,,,Kd,305 µM
Nc1nc2c(ncn2[C@@H]2O[C@H](COP(=O)(O)OP(=O)(O)O)[C@@H](O)[C@H]2O)c(=O)[nH]1,"GUK1 (Homo sapiens, UniProt Q16774, S13A)","binding, ITC",,25 °C,,Kd,74 ± 4 µM
CCc1ccc(C(=O)Oc2cc(C=O)ccc2[N+](=O)[O-])cc1,YWHAG/RELA phospho-Ser45 p65 peptide,"ternary complex formation, stabilizer, fluorescence anisotropy",,,,EC50,> 1000 µM
CC(=O)N[C@@H](COP(=O)(O)O)C(=O)N1CCC[C@H]1C(=O)N[C@H](C(=O)N[C@@H](Cc1ccccc1)C(N)=O)[C@@H](C)O,BRCA1 tandem BRCT domains,"binding to BACH1 peptide, isothermal titration calorimetry",,BRCT domain,,Kd,2.31 ± 0.06 µM
N[C@@H](CCC(=O)N[C@@H](CS)C(=O)NCC(=O)O)C(=O)O,Cu(I),"binding, bicinchoninic acid competition",,"250 µM, with: bicinchoninic acid 40 µM",,Kd,3.08e-05 µM
O=Cc1ccc(-n2cncn2)cc1,YWHAG/RELA phospho-Ser45 p65 peptide,"ternary complex formation, stabilizer, fluorescence anisotropy",,,,EC50,> 1000 µM
CC(C)C[C@@H]1NC(=O)[C@H](C(C)C)NC(=O)CNC(=O)[C@H](CC(N)=O)NC(=O)[C@@H]2CCCN2C(=O)[C@H](Cc2ccc(O)cc2)NC(=O)[C@H](CCCNC(=N)N)NC(=O)[C@H](Cc2ccccc2)NC(=O)[C@@H](NC(=O)[C@H](CCCCN)NC(=O)[C@H](C)NC(=O)[C@H](CO)NC(=O)[C@H](C)NC(=O)[C@@H](N)Cc2ccc(O)cc2)CSSC[C@@H](C(=O)N[C@H](C(N)=O)[C@@H](C)O)NC(=O)[C@H](C)NC1=O,"Alpha-2-HS-glycoprotein, asialo (AHSG, Bos taurus, UniProt P12763)","binding, isothermal titration calorimetry",,"pH 7.0, 25 °C, with: asialofetuin",,Kd,65.5 µM
CC(C)(COP(=O)(O)OP(=O)(O)OC[C@H]1O[C@@H](n2cnc3c(N)ncnc32)[C@H](O)[C@@H]1OP(=O)(O)O)[C@@H](O)C(=O)NCCC(=O)NCCS,"N-alpha-acetyltransferase 16, NatA auxiliary subunit (NAA16, Homo sapiens, UniProt Q6N069)","competitor, competition MS pulldown",SW-620 cell lysate,with: photo-immobilized beads,,Kd,1.38 µM
COC(=O)c1cc(C)c2cc(C(=O)NC3CCN(c4cc(C)nn4C)C3)[nH]c2c1 (centres unmarked),"S-phase kinase-associated protein 1 (SKP1, Homo sapiens, UniProt P63208)","binding, SPR",,20 °C,,Kd,10 µM
C=CC(=O)N1CCN(c2nc(OC[C@@H]3CCCN3C)nc3c(F)c(-c4nc(N)cc(C)c4C(F)(F)F)c(Cl)cc23)[C@@H](C)C1,"GTPase KRas, GDP-bound (KRAS, Homo sapiens, UniProt P01116, G12V)",SPR,,,,Kd,5.15 ± 1.3 µM
Cc1n[nH]c(C)c1C(c1ccc(Br)cc1)c1c(C)n[nH]c1C,"Profilin-1 (PFN1, Homo sapiens, UniProt P07737)",,,,,Kd,~60 µM
Nc1ncnc2c1ncn2[C@@H]1O[C@H](COP(=O)(O)OP(=O)(O)OP(=O)(O)O)[C@@H](O)[C@H]1O,"Cystic fibrosis transmembrane conductance regulator (CFTR, Homo sapiens, UniProt P13569)","channel open probability, inside-out patch clamp",CHO-K1,,,Kd,281 µM
O=c1ccn([C@@H]2O[C@H](COP(=O)(O)OP(=O)(O)O)[C@@H](O)[C@H]2O)c(=O)[nH]1,"Histo-blood group ABO system transferase (ABO, Homo sapiens, UniProt P16442, G235S/G268A/L266M/R176G/W181E)",methyl-TROSY NMR titration lineshape analysis,,apo mutant enzyme,,Kd,738 ± 6 µM
NC(=O)C1=CN([C@@H]2O[C@H](COP(=O)(O)OP(=O)(O)OC[C@H]3O[C@@H](n4cnc5c(N)ncnc54)[C@H](O)[C@@H]3O)[C@@H](O)[C@H]2O)C=CC1,"Non-selective voltage-gated ion channel VDAC1 (Vdac1, Mus musculus, UniProt Q60932, K249A)","binding, fluorescence polarization",,,,Kd,6.97 ± 0.16 µM
NC(=O)c1ccc[n+]([C@@H]2O[C@H](COP(=O)([O-])OP(=O)(O)OC[C@H]3O[C@@H](n4cnc5c(N)ncnc54)[C@H](O)[C@@H]3O)[C@@H](O)[C@H]2O)c1,"Polyketide synthase, terminal amidation domain (Moorena producens, UniProt F4Y2B0)","binding, tryptophan fluorescence quenching",,,,Kd,440 ± 50 µM
COc1cc(CCC(=O)CC(=O)CCc2ccc(O)c(OC)c2)ccc1O,"Pachytene checkpoint protein 2 homolog (TRIP13, Homo sapiens, UniProt Q15645)",,,,,Kd,0.0455 µM
CC(C)C[C@H](NC(=O)[C@H](CCC(=O)O)NC(=O)[C@H](CCC(N)=O)NC(=O)[C@H](CO)NC(=O)CCCCCNC(=S)Nc1ccc2c(c1)C(=O)OC21c2ccc(O)cc2Oc2cc(O)ccc21)C(=O)N[C@@H](Cc1c[nH]cn1)C(=O)N[C@@H](CCCCN)C(=O)N[C@@H](CC(C)C)C(=O)N[C@@H](CCC(N)=O)C(=O)N[C@H](C(=O)N[C@@H](Cc1ccc(O)cc1)C(=O)N1CCC[C@H]1C(=O)N[C@@H](CCCNC(=N)N)C(=O)N[C@H](C(=O)N[C@@H](CC(N)=O)C(=O)N[C@H](C(=O)NCC(=O)N[C@@H](CO)C(=O)NCC(=O)N[C@H](C(=O)N1CCC[C@H]1C(N)=O)[C@@H](C)O)[C@@H](C)O)[C@@H](C)O)[C@@H](C)O,"Calcitonin receptor, extracellular domain (CALCR, Homo sapiens, UniProt P30988)","peptide binding, fluorescence polarization",,pH 7.4,,Kd,1.15 µM
N=C(N)NCCC[C@H](N)C(=O)O,"argT (Salmonella enterica, UniProt P02911)","binding, isothermal titration calorimetry",,"two-sets-of-sites model, site 2, mixture with SAR11_1210",,Kd,0.00983 µM and 0.0105 µM
O=C(O)Cc1c(Br)[nH]c2ccccc12,"Cystic fibrosis transmembrane conductance regulator, NBD1 (CFTR, Homo sapiens, UniProt P13569, F494N)",surface plasmon resonance,,immobilized NBD1,,Kd,964 µM
O=c1c(-c2ccc(O)cc2)coc2cc(O)cc(O)c12,Nuclear receptor subfamily 2 group C member 2 ligand-binding domain,SPR imaging,,,,Kd,0.000122 µM
C[S+](CC[C@H](N)C(=O)O)C[C@H]1O[C@@H](n2cnc3c(N)ncnc32)[C@H](O)[C@@H]1O (some centres unmarked),"O-methyltransferase (Sorghum bicolor, UniProt A0A1B6PFV1)",ITC,,"25 °C, apo enzyme",,Kd,112 ± 15 µM
O=C(O)CCc1nc(-c2ccccc2)c(-c2ccccc2)o1,COS-7,,,"50 µM, 24 h, 0.1% DMSO, unit not given",baseline: vehicle control,confluence,0.98 ± 0.02
Nc1ncnc2c1ncn2[C@@H]1O[C@H](COP(=O)(O)OP(=O)(O)OP(=O)(O)O)[C@@H](O)[C@H]1O,"Creatine kinase U-type, mitochondrial (CKMT1A, Homo sapiens, UniProt P12532, E265D)",microscale thermophoresis,,"pH 8.5, E227D mutant, no substrate",,Kd,6 ± 3 µM
C[C@@H]1C/C=C/C=C/C=C/C=C/[C@H](O[C@@H]2O[C@H](C)[C@@H](O)[C@H](N)[C@@H]2O)C[C@@H]2O[C@](O)(C[C@@H](O)C[C@H]3O[C@@H]3/C=C/C(=O)O1)C[C@H](O)[C@H]2C(=O)O,Nuclear receptor subfamily 2 group C member 2 ligand-binding domain,SPR imaging,,,,Kd,0.00909 µM
O=C(O)c1cc(O)c2c(c1)C(=O)c1cccc(O[C@@H]3O[C@H](CO)[C@@H](O)[C@H](O)[C@H]3O)c1C2=O,HepaRG co-cultured with HK-2,MTT,,"266.67 µM, 24 h",baseline: untreated control,cell viability,99.1 ± 8.96%
C[C@H](N)C(=O)N[C@@H](C)C(=O)N[C@H](C(=O)N[C@@H](CCCCN)C(=O)N[C@@H](CCC(N)=O)C(=O)N[C@H](C(=O)N[C@@H](C)C(=O)N[C@@H](CCCNC(=N)N)C(=O)N[C@@H](CCCCN)C(=O)N[C@@H](CO)C(=O)O)[C@@H](C)O)[C@@H](C)O,ATRX F284Y/K251R,binding,,,,Kd,127 µM
CCCN1CCN(c2ccc(-c3cncc(Cl)c3N3CCC4(CCNC4=O)CC3)cc2)CC1,CCNC human,SILAC competition,LS174T-L5 lysate,,,Kd,0.011 µM
O=C(O)C[C@H](O)C[C@H](O)/C=C/c1c(C2CC2)nc2ccccc2c1-c1ccc(F)cc1,COS-7,,,"10 µM, 24 h, 0.1% DMSO, unit not given",baseline: vehicle control,apoptotic cells,1.13 ± 0.17
CCCCC[C@H](O)/C=C/[C@H]1[C@H](O)CC(=O)[C@@H]1CCCCCCC(=O)O,Nuclear receptor subfamily 2 group C member 2 ligand-binding domain,SPR imaging,,,,Kd,0.024 µM
COc1ccc(F)cc1C(=O)NCc1ccc(-c2nn([C@@H](C)C(F)(F)F)c(N)c2C(N)=O)cc1,"Tyrosine-protein kinase BTK (BTK, Homo sapiens, UniProt Q06187, C481S)",surface plasmon resonance,,,,Kd,0.0015 µM
O=C(O)c1cccnc1,Nuclear receptor subfamily 2 group C member 2 ligand-binding domain,binding,,,,Kd,0.00114 µM
CC(=O)N[C@@H](COP(=O)(O)O)C(=O)N1CCC[C@H]1C(=O)N[C@@H](C)C(=O)N[C@@H](Cc1ccccc1)C(N)=O,BRCA1 tandem BRCT domains,NMR titration,,"pH 7.0, 30 °C",,Kd,21 ± 11 µM
Cc1cc(O)c2c(c1)C(=O)c1cc(O)cc(O)c1C2=O,HepaRG co-cultured with HK-2,MTT,,"133.33 µM, 24 h",baseline: untreated control,cell viability,51.7 ± 9.77%
CCC1=C(C)CN(C(=O)NCCc2ccc(S(=O)(=O)NC(=O)N[C@H]3CC[C@H](C)CC3)cc2)C1=O,Nuclear receptor subfamily 2 group C member 2 ligand-binding domain,SPR imaging,,,,Kd,0.000251 µM
